Results from different studies.
Compare with care: the assays were run in different laboratories. ± marks the error that the study gave.
Chain of UniProt P10721 (whole entry, unmodified, looked up): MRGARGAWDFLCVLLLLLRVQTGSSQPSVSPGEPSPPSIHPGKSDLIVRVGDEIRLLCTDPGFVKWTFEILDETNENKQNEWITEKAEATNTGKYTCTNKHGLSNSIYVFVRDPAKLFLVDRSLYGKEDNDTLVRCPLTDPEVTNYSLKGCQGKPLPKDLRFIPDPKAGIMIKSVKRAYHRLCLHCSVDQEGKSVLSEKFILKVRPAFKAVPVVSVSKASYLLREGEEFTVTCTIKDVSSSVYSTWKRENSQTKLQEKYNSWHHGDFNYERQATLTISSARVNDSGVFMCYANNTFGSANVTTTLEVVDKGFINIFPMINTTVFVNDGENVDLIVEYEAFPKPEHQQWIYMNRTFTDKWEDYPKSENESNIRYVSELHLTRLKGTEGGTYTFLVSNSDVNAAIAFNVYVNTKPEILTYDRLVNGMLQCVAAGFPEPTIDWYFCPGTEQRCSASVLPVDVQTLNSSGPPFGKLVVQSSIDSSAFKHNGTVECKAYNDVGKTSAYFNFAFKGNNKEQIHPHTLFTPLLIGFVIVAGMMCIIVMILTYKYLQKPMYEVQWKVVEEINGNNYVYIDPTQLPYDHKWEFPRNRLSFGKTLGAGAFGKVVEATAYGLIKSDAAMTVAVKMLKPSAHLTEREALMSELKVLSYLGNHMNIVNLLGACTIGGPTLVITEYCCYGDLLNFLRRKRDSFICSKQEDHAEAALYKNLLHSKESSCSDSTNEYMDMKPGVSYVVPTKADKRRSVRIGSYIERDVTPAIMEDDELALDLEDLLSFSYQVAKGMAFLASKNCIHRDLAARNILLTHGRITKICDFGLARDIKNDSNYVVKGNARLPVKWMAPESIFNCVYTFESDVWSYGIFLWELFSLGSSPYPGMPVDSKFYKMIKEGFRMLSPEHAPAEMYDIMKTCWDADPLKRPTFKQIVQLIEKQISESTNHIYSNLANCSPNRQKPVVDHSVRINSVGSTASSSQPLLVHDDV
Chain of UniProt Q8IZL9 (whole entry, looked up): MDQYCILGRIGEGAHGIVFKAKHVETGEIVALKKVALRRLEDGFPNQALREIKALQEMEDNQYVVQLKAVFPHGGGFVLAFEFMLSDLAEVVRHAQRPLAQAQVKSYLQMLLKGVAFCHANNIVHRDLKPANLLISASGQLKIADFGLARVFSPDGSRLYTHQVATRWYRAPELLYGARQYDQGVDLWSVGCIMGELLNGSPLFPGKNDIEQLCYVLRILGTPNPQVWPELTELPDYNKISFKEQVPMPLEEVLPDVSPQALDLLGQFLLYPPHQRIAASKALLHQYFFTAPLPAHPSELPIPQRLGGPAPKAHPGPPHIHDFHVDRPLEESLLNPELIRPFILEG
Chain of UniProt P50406 (whole entry, looked up): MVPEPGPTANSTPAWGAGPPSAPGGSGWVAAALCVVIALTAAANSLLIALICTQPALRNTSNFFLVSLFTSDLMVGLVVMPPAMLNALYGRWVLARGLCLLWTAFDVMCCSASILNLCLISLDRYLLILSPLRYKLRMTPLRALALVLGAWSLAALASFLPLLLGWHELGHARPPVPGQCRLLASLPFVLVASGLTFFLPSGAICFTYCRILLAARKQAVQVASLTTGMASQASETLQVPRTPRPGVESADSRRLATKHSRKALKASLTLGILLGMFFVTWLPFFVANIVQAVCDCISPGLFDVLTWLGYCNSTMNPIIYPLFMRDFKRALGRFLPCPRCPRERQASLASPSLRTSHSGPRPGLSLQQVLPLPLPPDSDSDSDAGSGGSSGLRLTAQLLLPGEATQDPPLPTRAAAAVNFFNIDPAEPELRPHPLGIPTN
Chain of UniProt Q9Y5S2 (whole entry, looked up): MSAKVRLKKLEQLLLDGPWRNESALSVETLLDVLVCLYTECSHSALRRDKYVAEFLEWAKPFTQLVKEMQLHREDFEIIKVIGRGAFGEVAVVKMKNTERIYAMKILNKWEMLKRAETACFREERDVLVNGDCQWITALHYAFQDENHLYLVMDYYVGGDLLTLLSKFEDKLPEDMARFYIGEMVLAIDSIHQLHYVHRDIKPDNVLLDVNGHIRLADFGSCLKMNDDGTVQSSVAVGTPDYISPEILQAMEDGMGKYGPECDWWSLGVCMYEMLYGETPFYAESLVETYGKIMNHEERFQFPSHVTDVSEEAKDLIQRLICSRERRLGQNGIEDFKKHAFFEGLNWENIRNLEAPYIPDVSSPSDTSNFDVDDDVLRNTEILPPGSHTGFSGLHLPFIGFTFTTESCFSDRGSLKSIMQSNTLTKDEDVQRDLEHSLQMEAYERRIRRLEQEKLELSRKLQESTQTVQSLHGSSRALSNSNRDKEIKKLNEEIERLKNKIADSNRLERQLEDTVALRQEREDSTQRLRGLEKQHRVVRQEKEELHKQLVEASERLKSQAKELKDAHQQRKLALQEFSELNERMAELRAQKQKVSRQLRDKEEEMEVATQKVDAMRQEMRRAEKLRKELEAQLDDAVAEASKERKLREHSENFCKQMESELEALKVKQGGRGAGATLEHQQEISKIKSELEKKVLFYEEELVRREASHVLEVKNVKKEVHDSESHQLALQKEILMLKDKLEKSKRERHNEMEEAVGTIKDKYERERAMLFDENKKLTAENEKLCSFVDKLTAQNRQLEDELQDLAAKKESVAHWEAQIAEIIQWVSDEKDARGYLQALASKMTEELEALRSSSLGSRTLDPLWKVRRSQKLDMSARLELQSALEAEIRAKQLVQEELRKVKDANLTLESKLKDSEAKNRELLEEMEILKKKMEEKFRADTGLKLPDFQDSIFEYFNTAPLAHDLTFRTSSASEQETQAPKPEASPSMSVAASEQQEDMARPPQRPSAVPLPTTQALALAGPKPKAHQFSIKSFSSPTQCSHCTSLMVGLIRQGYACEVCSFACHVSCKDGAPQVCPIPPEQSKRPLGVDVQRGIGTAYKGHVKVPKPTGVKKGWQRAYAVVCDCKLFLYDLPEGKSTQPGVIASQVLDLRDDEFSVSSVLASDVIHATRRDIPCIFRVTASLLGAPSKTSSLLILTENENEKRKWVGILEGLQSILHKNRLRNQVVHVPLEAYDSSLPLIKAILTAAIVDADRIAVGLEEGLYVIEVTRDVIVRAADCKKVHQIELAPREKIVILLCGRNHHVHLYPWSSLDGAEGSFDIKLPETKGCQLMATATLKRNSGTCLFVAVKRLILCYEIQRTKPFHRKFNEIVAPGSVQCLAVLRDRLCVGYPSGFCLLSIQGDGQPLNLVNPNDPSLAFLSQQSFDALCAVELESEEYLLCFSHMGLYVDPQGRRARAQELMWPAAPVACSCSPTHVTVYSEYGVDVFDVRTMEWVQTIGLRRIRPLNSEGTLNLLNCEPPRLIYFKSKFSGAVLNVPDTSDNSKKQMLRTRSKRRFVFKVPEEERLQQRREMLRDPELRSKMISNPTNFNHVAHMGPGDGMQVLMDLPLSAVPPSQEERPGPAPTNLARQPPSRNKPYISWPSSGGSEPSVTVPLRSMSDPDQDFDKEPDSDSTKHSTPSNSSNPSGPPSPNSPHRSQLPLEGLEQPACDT
Chain of UniProt P43235 (whole entry, looked up): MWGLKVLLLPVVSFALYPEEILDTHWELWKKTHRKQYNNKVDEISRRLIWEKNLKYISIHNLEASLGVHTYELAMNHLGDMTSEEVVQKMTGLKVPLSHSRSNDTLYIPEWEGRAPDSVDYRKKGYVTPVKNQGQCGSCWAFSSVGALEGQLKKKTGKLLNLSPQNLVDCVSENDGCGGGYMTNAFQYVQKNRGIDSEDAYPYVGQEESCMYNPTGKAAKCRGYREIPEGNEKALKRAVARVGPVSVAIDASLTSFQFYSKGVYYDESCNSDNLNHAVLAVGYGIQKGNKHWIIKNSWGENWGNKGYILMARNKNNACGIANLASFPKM
Chain of UniProt O14965 (whole entry, looked up): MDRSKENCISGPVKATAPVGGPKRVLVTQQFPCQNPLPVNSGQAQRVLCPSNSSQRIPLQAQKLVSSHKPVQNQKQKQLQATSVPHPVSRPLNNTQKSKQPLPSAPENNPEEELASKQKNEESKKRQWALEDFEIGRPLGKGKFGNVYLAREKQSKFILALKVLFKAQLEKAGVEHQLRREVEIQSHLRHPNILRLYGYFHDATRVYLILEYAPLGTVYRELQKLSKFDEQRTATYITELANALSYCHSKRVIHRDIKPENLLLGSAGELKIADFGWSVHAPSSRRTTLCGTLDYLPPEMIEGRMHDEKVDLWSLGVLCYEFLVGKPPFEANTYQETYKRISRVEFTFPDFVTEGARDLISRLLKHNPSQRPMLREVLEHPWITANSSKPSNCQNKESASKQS
Chain of UniProt P21554 (whole entry, unmodified, looked up): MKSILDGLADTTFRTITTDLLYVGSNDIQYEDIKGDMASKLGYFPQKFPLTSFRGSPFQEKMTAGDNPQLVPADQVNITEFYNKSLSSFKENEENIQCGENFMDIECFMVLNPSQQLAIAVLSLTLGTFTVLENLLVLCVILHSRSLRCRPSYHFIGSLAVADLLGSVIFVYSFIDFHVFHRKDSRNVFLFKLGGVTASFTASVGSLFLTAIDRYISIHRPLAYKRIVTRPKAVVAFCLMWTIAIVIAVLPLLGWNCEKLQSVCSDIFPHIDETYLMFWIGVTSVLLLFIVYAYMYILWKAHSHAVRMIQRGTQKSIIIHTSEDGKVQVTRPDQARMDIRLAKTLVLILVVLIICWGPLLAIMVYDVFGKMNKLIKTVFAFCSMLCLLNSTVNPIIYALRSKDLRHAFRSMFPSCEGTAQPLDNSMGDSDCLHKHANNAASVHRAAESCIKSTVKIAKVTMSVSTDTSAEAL

CN(C)[C@H]1C[C@@]23CC[C@@]4(O2)C(=CC[C@]2(C)[C@@H](c5ccc6ccncc6c5)CC[C@H]24)C=C3[C@@H](O)[C@@H]1O
inhibition (Cyclin-dependent kinase 20 (CDK20, Homo sapiens, UniProt Q8IZL9); ATP probe labelling, inhibitor, KiNativ profiling; 1 µM): 6.3%

O=C1NC(=O)c2c1c1cc(F)c[n+]3c1c1c2c2cc(O)ccc2[n]1[Ru-4]312([N]=C=S)[S+]3CC[S+]1CC[S+]2CC3 (centres unmarked)
remaining activity (Mast/stem cell growth factor receptor Kit (KIT, Homo sapiens, UniProt P10721); enzyme activity; 100 nM, human enzyme, together with: 10 µM ATP; reference: untreated): 113%

CS(C)(=O)=Nc1ccc(-c2ccc(-c3nc4cc(O[C@@H]5CO[C@H]6[C@@H]5OC[C@H]6O)[nH]c4cc3F)cc2)cc1
inhibition (Serine/threonine-protein kinase MRCK beta (CDC42BPB, Homo sapiens, UniProt Q9Y5S2); enzyme activity, inhibitor; 10 µM): 1%

Cc1ccc2c(C(C[N+](=O)[O-])c3cccs3)c(-c3ccccc3)[nH]c2c1 (centres unmarked)
Emax (Cannabinoid receptor 1 (CNR1, Homo sapiens, UniProt P21554, P394A); Gαi1-γ2 dissociation, BRET): 58.6 ± 3.07%

Cc1sc2c(c1C)C(c1ccc(Cl)cc1)=NC(CC(=O)OC(C)(C)C)c1nnc(C)n1-2 (centres unmarked)
remaining binding (5-hydroxytryptamine receptor 6 (HTR6, Homo sapiens, UniProt P50406); ligand displacement, radioligand; 1 µM): 97.7%

CC(C)[C@H]1NC(=O)C[C@H]2/C=C/CCSSC[C@@H](NC1=O)C(=O)N[C@H](Cc1cccc3ccccc13)C(=O)NCC(=O)O2
inhibition (Mast/stem cell growth factor receptor Kit (KIT, Homo sapiens, UniProt P10721, D816E); enzyme activity, inhibitor; 10 µM): -5.5%

CC(C)CC(C(=O)N1CC2(CC1C#N)C(=O)Nc1ccccc12)N(C)C(=O)c1cc2c(F)cc(F)c(F)c2[nH]1 (centres unmarked)
Hill slope (Cathepsin K (CTSK, Homo sapiens, UniProt P43235)): -0.62

Nc1ccc(/C=C/C(=O)N2CCc3c(oc4c(-c5ccc(F)cc5)cc(-c5ccc(C(=O)N6CCC(F)(F)CC6)cn5)cc34)C2)cn1
remaining binding (Aurora kinase A (AURKA, Homo sapiens, UniProt O14965); binding, competition with immobilised ligand; 1 µM): 91%
